Experimental data collected from several papers.
Every numbered part comes from another study and shows a few of its results, in no order. Changes are numbered by the printed parent chain.
UniProt P35626, sequence (whole entry, looked up): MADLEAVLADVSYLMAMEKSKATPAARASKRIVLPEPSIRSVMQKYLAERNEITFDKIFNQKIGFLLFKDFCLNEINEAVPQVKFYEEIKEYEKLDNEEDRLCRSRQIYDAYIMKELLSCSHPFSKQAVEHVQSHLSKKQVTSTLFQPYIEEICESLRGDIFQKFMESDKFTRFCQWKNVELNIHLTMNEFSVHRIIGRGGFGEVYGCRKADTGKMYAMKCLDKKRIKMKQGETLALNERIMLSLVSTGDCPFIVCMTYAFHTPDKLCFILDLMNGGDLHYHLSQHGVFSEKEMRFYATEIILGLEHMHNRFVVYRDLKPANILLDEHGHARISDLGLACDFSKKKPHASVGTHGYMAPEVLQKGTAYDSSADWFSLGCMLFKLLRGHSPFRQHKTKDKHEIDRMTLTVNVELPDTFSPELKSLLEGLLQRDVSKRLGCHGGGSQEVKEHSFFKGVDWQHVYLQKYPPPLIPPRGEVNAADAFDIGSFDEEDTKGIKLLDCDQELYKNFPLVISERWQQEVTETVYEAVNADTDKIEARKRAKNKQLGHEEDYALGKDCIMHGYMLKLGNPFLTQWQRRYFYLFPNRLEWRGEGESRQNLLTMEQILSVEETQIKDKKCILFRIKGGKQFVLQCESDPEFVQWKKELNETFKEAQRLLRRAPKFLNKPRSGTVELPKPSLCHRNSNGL
UniProt Q13163, sequence (whole entry, looked up): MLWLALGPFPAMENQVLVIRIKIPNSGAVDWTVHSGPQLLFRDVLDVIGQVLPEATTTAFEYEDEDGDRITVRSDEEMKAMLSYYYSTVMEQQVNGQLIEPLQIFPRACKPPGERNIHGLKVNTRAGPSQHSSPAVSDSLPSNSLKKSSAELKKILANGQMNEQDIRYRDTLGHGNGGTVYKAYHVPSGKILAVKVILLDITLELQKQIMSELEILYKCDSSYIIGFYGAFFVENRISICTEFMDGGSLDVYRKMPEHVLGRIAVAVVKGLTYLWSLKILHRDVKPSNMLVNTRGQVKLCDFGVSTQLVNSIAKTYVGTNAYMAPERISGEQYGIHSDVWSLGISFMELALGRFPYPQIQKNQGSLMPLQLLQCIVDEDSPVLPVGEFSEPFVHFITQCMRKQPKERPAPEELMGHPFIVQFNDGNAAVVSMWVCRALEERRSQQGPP
UniProt Q16816, sequence (whole entry, looked up): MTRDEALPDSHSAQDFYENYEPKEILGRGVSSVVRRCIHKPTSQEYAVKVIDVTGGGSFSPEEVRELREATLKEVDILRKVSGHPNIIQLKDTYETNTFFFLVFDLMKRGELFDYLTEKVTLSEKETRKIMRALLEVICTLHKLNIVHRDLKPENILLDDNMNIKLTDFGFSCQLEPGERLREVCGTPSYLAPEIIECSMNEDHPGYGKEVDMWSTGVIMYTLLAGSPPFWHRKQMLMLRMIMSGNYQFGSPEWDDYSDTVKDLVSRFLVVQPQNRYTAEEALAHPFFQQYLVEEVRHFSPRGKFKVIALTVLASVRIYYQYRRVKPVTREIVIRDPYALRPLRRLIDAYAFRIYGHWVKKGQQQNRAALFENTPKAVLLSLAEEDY
UniProt Q9BYT3, sequence (whole entry, looked up): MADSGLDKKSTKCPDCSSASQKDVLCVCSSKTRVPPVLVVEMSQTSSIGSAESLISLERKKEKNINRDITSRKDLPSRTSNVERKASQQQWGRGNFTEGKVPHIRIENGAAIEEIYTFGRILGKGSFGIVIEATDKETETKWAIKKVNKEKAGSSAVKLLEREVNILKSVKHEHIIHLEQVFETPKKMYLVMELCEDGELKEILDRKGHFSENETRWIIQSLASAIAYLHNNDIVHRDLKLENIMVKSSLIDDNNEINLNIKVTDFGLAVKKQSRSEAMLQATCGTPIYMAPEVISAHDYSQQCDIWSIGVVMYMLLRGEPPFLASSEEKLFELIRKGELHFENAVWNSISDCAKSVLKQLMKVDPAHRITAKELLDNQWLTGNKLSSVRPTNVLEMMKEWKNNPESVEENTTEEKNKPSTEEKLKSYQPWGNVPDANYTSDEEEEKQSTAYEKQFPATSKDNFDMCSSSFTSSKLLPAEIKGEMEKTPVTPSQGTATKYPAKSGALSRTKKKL
UniProt O95747, sequence (whole entry, looked up): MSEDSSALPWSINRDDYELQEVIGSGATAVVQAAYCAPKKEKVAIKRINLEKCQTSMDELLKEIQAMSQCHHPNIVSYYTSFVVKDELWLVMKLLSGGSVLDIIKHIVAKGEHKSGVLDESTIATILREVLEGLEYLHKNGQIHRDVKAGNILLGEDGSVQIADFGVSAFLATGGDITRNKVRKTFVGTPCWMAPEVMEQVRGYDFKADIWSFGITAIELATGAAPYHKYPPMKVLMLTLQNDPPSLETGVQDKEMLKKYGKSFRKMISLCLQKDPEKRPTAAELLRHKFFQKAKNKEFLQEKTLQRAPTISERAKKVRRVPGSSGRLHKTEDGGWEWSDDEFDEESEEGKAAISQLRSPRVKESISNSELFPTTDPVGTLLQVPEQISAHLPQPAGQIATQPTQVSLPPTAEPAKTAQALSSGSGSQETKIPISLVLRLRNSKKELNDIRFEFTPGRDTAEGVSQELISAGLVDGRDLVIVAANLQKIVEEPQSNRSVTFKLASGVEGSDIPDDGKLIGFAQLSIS
UniProt P07949, sequence (whole entry, looked up): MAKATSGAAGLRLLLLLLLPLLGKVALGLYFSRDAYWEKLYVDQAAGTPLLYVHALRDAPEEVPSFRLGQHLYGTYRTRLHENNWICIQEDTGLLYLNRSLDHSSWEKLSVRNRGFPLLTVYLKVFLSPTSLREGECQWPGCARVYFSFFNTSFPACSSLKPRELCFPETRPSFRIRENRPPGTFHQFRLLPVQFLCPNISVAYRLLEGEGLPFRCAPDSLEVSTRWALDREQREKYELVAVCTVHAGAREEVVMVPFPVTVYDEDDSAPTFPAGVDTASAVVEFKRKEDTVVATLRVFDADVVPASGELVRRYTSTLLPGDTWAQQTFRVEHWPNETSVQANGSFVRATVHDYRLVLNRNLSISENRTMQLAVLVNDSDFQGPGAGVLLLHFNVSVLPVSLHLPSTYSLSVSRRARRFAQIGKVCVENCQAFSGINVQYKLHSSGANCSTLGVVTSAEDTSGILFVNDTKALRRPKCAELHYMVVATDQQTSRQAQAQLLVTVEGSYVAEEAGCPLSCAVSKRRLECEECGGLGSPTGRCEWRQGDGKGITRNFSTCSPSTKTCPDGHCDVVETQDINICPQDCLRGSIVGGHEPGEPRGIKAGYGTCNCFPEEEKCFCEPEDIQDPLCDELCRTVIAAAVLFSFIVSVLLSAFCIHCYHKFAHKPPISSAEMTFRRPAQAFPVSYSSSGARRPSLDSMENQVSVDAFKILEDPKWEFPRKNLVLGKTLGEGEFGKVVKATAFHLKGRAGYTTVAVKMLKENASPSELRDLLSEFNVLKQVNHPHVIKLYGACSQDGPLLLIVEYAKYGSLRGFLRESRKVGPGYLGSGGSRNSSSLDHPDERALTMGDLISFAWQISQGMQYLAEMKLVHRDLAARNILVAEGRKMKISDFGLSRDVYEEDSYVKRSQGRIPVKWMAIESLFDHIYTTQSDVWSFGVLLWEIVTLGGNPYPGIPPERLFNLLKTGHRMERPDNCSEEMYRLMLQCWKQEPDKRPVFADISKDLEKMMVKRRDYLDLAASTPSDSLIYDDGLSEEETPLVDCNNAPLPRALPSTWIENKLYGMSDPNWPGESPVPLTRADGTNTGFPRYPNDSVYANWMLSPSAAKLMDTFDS
UniProt P41240, sequence (whole entry, looked up): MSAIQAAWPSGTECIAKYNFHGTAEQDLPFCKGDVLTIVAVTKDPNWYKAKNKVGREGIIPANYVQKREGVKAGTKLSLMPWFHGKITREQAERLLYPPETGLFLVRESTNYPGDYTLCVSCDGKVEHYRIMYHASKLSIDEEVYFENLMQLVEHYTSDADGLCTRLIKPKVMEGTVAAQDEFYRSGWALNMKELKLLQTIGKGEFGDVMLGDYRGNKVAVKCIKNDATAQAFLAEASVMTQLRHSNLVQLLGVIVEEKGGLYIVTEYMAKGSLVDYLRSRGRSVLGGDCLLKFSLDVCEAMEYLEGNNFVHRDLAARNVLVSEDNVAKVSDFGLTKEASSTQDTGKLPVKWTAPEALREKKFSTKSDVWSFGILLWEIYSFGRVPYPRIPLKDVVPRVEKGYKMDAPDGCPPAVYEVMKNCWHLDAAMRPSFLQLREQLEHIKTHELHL

Study 1
Target: Mitogen-activated protein kinase kinase kinase 3 (MAP3K3, Homo sapiens, UniProt Q99759)
UniProt Q99759, sequence (whole entry, looked up): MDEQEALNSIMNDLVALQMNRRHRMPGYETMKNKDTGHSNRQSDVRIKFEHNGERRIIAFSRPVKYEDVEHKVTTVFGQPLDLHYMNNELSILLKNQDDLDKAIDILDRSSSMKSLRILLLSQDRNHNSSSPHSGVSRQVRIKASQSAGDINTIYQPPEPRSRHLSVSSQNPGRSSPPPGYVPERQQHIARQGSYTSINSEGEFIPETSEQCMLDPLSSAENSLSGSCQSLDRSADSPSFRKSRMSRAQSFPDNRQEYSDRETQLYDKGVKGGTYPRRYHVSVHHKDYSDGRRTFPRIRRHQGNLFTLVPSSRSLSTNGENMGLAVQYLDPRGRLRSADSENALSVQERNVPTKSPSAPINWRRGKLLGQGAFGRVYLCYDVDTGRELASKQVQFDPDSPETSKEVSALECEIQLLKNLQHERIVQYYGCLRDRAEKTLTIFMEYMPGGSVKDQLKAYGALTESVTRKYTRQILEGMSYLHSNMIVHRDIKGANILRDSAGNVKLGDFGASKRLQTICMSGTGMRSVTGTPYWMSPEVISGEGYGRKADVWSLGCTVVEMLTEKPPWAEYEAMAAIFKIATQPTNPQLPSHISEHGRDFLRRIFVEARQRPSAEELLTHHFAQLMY
Effect on: enzyme activity
Action: inhibitor
Concentration: 0.5 µM
Relative to: control
Compound | remaining activity [%]
Nc1ncnc2n[nH]c(Nc3ccc(F)cc3)c12 | 87.6
O=c1c2ccccc2[nH]c(=S)n1CCN1CCC(=C(c2ccc(F)cc2)c2ccc(F)cc2)CC1 | 102
COc1ccc(CNC(=O)Nc2ncc([N+](=O)[O-])s2)cc1 | 87.6

Study 2
Structure (SMILES): CSc1cccnc1N1CCN(Cc2nc3ccccc3[nH]2)CC1
Concentration: 1 µM
target | effect on | method | relative to | remaining binding
PIK3CA (Homo sapiens, UniProt P42336, C420R) | cell-free assay | competition with immobilised ligand | – | 100%
GRK3 (Homo sapiens, UniProt P35626) | cell-free assay | competition with immobilised ligand | – | 31%
MAP3K13 (Homo sapiens, UniProt O43283) | cell-free assay | competition with immobilised ligand | – | 82%
PHKG1 (Homo sapiens, UniProt Q16816) | cell-free assay | competition with immobilised ligand | – | 96%
OXSR1 (Homo sapiens, UniProt O95747) | cell-free assay | competition with immobilised ligand | – | 78%
TAOK2 (Homo sapiens, UniProt Q9UL54) | cell-free assay | competition with immobilised ligand | – | 95%
NUAK2 (Homo sapiens, UniProt Q9H093) | cell-free assay | competition with immobilised ligand | – | 100%
STK26 (Homo sapiens, UniProt Q9P289) | cell-free assay | competition with immobilised ligand | – | 95%
MAPK9 (Homo sapiens, UniProt P45984) | cell-free assay | competition with immobilised ligand | – | 68%
NTRK1 (Homo sapiens, UniProt P04629) | cell-free assay | competition with immobilised ligand | – | 85%
NEK9 (Homo sapiens, UniProt Q8TD19) | cell-free assay | competition with immobilised ligand | – | 100%
CSK (Homo sapiens, UniProt P41240) | cell-free assay | competition with immobilised ligand | – | 100%
RET (Homo sapiens, UniProt P07949) | cell-free assay | competition with immobilised ligand | – | 94%
STK33 (Homo sapiens, UniProt Q9BYT3) | cell-free assay | competition with immobilised ligand | – | 91%
TBK1 (Homo sapiens, UniProt Q9UHD2) | cell-free assay | competition with immobilised ligand | – | 100%
MAP2K5 (Homo sapiens, UniProt Q13163) | cell-free assay | competition with immobilised ligand | – | 72%
SIK3 (Homo sapiens, UniProt Q9Y2K2) | cell-free assay | competition with immobilised ligand | – | 100%
AAK1 (Homo sapiens, UniProt Q2M2I8) | – | KINOMEscan | control | 100%

Study 3
Target: CRIPT, C-terminal peptide
Method: DHFR complementation, deep sequencing
Medium: yeast
Setting: single substitutions, model-inferred values
Relative to: wild type
Direction: higher = weaker binding
Parent: ERBIN, PDZ domain 1 (human); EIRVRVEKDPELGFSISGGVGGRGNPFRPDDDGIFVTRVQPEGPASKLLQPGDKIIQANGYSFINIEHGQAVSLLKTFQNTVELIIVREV; partner TKNYKQTSV
Substitution | binding free energy change [kcal/mol]
G69E | -0.803
E83Q | 0.164
K76T | 0.364
D9H | 0.112
N80K | 0.0805
I55R | 0.559
L48H | 0.0582
S62L | 0.161

Study 4
Target: CCND2, cyclin fold, Cln2 fusion (human)
Method: yeast growth competition, sequencing
Medium: yeast
Setting: weak parent motif
Relative to: not given
Direction: higher = stronger binding
Parent: WEE1 docking peptide (human); HKTFRKLRLFDTP
Substitution | normalised enrichment score
T12V | 0.479
L9P | -0.145
R5A | -0.596
R8Y | 0.572
H1Y | -0.0606
R5Q | 0.16
K2N | 0.161
T3W | 0.357

Further values, each from its own experiment
Molecule | target | assay | test system | conditions | scale | quantity | value
PhoQ, residues 284 288 289 292 302 303 ALSMDL | PhoP, residues 12 14 15 18 19 HLGGL (Escherichia coli, UniProt P23836) | Sort-seq, refers to: YFP reporter | E. coli | PhoQ-PhoP variant library, together with: 10 µM Mg2+ | relative to: high Mg2+ state, higher = stronger signaling | fold induction | 28.1
AAAAAAAA (biotin) | Embryonic polyadenylate-binding protein 2, RRM domain (PABPN1L, Homo sapiens, UniProt A6NDY0, residues 127-244) | protein domain microarray | RNA, in vitro | not given, poly(A) 8-mer RNA, whole probe, immobilized GST-fusion domains, most near background | relative to: GST loading signal, higher = stronger binding | signal ratio | 16.1

For quick reference, copied from above (study 2):
target | effect on | method | relative to | remaining binding
STK33 (Homo sapiens, UniProt Q9BYT3) | cell-free assay | competition with immobilised ligand | – | 91%
TAOK2 (Homo sapiens, UniProt Q9UL54) | cell-free assay | competition with immobilised ligand | – | 95%
GRK3 (Homo sapiens, UniProt P35626) | cell-free assay | competition with immobilised ligand | – | 31%
PHKG1 (Homo sapiens, UniProt Q16816) | cell-free assay | competition with immobilised ligand | – | 96%
